Measurements from different studies.
Every numbered part comes from another study and shows a few of its results, in no order.

Sample 1
Cell line: HEK-293T
Organism: VSV pseudotyped with SARS-CoV-2 spike
Concentration: 10 µM
Time: 16 h
SMILES	pseudovirus infection [%]
N[C@@H](CCC(=O)N[C@@H](CS)C(=O)NCC(=O)O)C(=O)O	75.9
O=C1CN(/N=C/c2ccc([N+](=O)[O-])o2)C(=O)N1	72.7
CN1CCN(C2=Nc3cc(Cl)ccc3Nc3ccccc32)CC1	52.3
CN1[C@@H]2CC[C@H]1C[C@@H](OC(=O)C(CO)c1ccccc1)C2 (some centres unmarked)	79.9

Sample 2
Target: Replicase polyprotein 1ab, nsp13 helicase (rep, Severe acute respiratory syndrome coronavirus 2, UniProt P0DTD1)
Mode: inhibitor
Concentration: 20 µM
SMILES	inhibition [%]
CC(C)(C)C(=O)C(Oc1ccc(Cl)cc1)n1ccnc1 (centres unmarked)	8.39
CCCCN(CCCC)C(=O)CN1C[C@H](c2ccc3c(c2)OCO3)[C@@H](C(=O)O)[C@@H]1c1ccc(OC)cc1	13.8
Cc1cc2nc3c(=O)[nH]c(=O)nc-3n(C[C@H](O)[C@H](O)[C@H](O)CO)c2cc1C	12.4
CCCCCNC(=N)N/N=C/c1c[nH]c2ccc(OC)cc12	6.08
COc1ccc(N(C(=O)Oc2c(C)cccc2C)c2ccnc(Nc3ccc(N4CCN(C)CC4)cc3)n2)c(OC)c1	7.33
C=CCOc1ccc(CC(=O)O)cc1Cl	5.36
C[C@@H]1NC(C)(C)CO[C@@]1(O)c1cccc(Cl)c1	6.92
CCOC(=O)[C@H]1O[C@@H]1C(=O)N[C@@H](CC(C)C)C(=O)NCCC(C)C	-26.4
Cc1cc(CC(C)CC(C)(C)C)n(O)c(=O)c1 (centres unmarked)	-1.14
CCOC(=O)C1=C(COCCN)NC(C)=C(C(=O)OC)C1c1ccccc1Cl (centres unmarked)	7.1
Cn1cc(-c2ccc(S(=O)(=O)n3ccc(/C=C/C(=O)Nc4ccccc4N)c3)cc2)cn1	7.88
OCC(CO)N[C@H]1C[C@](O)(CO)[C@@H](O)[C@H](O)[C@H]1O	3.01
COc1cc(N2CCC(N3CCN(C)CC3)CC2)ccc1Nc1ncnc(Nc2ccccc2S(=O)(=O)C(C)C)n1	8.2
O=S1(=O)c2cccc3cccc(c23)N1CCCN1CCN(c2ccc(F)cc2)CC1	-1.29
CCCCN(Cc1ccc(C(=O)NO)cc1)C(=O)Nc1ccccc1	5.72
CC(=O)[C@H]1CC[C@H]2[C@@H]3CC[C@H]4C[C@](C)(O)CC[C@]4(C)[C@H]3CC[C@]12C	-1.94
COc1ccc(C(=O)c2ccccc2O)c(O)c1	4.21
COc1cc(/C=C2\CCC/C(=C\c3ccc(O)c(OC)c3)C2=O)ccc1O	17
c1ccc(NCc2ccc(CNc3ccccn3)cc2)nc1	0.96
O=C(NCCO)c1cc(C(=O)NCCO)cc(C(=O)NCCO)c1	-3.24
NC1CCN(c2nc3c(cc2F)c(=O)c(C(=O)O)cn3-c2ccc(F)cc2F)C1 (centres unmarked)	7.91
Cc1ccccc1C(=O)c1ccc(Nc2ccc(Br)cc2N)cc1Cl	6.33
CN1CCN(c2cc(-c3ccccc3)nc(N)n2)CC1	-3.68
Cc1ccc(OC[C@@H](O)[C@H](C)NC(C)C)c2c1CCC2	4.53
CC(C)(Oc1ccc(C2CC2(Cl)Cl)cc1)C(=O)O (centres unmarked)	-2.67

Sample 3
Target: Replicase polyprotein 1ab, main protease (rep, Severe acute respiratory syndrome coronavirus 2, UniProt P0DTD1)
Effect on: enzyme activity
Mode: inhibitor
Concentration: 20 µM
Notes: hit confirmation
Compound	inhibition [%]
O=C1C2CC=CCC2C(=O)N1SC(Cl)(Cl)Cl (centres unmarked)	100
O=C(O)c1ccc(N2C(=O)/C(=C/c3ccc(-c4ccc([N+](=O)[O-])cc4)o3)C=C2c2ccccc2)cc1	51.1
Oc1cc2c(cc1C(c1ccc(C(F)(F)F)cc1)N1CCOCC1)OCO2 (centres unmarked)	110

Sample 4
Target: Fragile X messenger ribonucleoprotein 1, C-terminal low-complexity region (Fmr1, Mus musculus, UniProt P35922)
Technique: RNA Bind-n-Seq
Molecule type: RNA
Medium: in vitro
Concentration: 200 nM
Notes: whole 134-nt RNA, ends assumed
With: 150 mM KCl
Reference: input library
Direction: higher = stronger binding
Oligonucleotide	log2 enrichment
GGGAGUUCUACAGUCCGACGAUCCUGUGCUACACAUCGUAUGUACCGAAUCGGGAAAAAAAGGGGAAAAAAAGGGGAAAAAAAGGAAAGUAUUAUGUUACGCCGUUCGGAUCUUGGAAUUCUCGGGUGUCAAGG	-0.208
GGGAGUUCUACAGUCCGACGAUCUGGCCCUGGUGGCAUGCGGGGAGGAAGAGGUGGCCUCAUGGAUCGUGGUGGUCCCGGUGGAAUGGUCAGAGGUGGCCGUGGUGGAGACAGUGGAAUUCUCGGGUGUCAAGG	0.148
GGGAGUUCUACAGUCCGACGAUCCCUGUGCUACACAUCGUAUGUACCGAAUCGGCCCCCCCGGGCCCCCCCGGCCCCCCCGGGAAAGUAUUAUGUUACGCCGUUCGGAUCUGCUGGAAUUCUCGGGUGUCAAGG	0.114
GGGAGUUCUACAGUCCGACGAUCCUGUGCUACACAUCGUAUGUACCGAAUCGGGAAAAAAAGGGUUUUUUUGGGUUUUUUUGGGAAAGUAUUAUGUUACGCCGUUCGGAUCUGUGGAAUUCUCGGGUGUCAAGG	-1.41
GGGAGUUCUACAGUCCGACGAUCAGUCCUGUGCUACACAUCGUAUGUACCGAAUCGGGCCCCCGGGGCCCCCGGCCCCCGGAAAGUAUUAUGUUACGCCGUUCGGAUCUGCACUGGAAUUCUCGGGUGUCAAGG	-0.152
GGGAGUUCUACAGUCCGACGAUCUGGCCCCGGUGGCAUGCGGGGAGGAAGAGGUGGCCUCAUGGAUCGUGGUGGUCCCGGUGGAAUGUUCAGAGGUGGCCGUGGUGGAGACAGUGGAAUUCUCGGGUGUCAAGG	-0.102
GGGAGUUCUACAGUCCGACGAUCCCUGUGCUACACAUCGUAUGUACCGAAUCGGGAAAAAAAGGGUUUUUUUGGGUUUUUGGGAAAGUAUUAUGUUACGCCGUUCGGAUCUGCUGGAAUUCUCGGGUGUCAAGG	-0.937
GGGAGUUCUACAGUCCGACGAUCCUCAAGUCCUGUGCUACACAUCGUAUGUACCGAAUCGGGGCGGGGCGGGGCGGGAAAGUAUUAUGUUACGCCGUUCGGAUCUGCACUUCCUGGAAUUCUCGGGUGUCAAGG	1.25

Sample 5
Target: Histone acetyltransferase KAT6A, both winged helices, GST fusion (KAT6A, Homo sapiens, UniProt Q92794, residues 1-181)
Technique: protein binding microarray
Molecule type: double-stranded DNA, one strand shown
Medium: in vitro
Concentration: not given
Notes: 8-mer, flanks averaged, mean of 2 arrays, mostly near background
Reference: not given
Direction: higher = stronger binding
Residues (chain): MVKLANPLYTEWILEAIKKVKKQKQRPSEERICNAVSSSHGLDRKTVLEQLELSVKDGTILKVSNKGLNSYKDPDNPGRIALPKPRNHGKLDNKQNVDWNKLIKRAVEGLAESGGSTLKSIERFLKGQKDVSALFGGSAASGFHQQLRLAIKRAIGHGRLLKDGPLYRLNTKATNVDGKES
Oligonucleotide	E-score
TATTGTCA	-0.165
ATAGGCGA	-0.0206
AGTGCGCG	0.293
GGCTGCCA	-0.0732
AAACGTAG	-0.14
CAGCAGTA	-0.125
AATCCGCC	0.19
GCCACCGA	-0.0687

Sample 6
Target: PABPC1L2, full length, GST fusion (mouse, UniProt A0ABA7IW68)
Technique: RNAcompete
Molecule type: RNA
Medium: in vitro
Concentration: 20 nM
Notes: 7-mer, probes averaged, single round
Reference: mean of 7-mers
Direction: higher = stronger binding
Construct (chain): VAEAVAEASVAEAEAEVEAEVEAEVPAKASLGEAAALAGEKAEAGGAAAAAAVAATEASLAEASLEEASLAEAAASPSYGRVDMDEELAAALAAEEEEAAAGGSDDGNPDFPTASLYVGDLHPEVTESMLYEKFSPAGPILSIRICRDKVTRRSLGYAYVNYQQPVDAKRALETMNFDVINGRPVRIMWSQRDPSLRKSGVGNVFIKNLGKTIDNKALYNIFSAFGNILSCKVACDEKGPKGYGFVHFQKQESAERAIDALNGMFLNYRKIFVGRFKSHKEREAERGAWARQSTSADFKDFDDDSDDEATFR
Oligonucleotide	7-mer Z-score
AUGAGCC	-0.195
CAGUCCU	-0.237
ACGAUCC	-0.211
UAUUAAC	-0.137
GCGUAUA	-0.204
GGUUGCC	-0.191
AAGCAAC	0.166
AUAUGCA	-0.0681

Excerpt of the above (sample 2):
SMILES	inhibition [%]
CC(C)(Oc1ccc(C2CC2(Cl)Cl)cc1)C(=O)O (centres unmarked)	-2.67
COc1cc(/C=C2\CCC/C(=C\c3ccc(O)c(OC)c3)C2=O)ccc1O	17
COc1cc(N2CCC(N3CCN(C)CC3)CC2)ccc1Nc1ncnc(Nc2ccccc2S(=O)(=O)C(C)C)n1	8.2
Cn1cc(-c2ccc(S(=O)(=O)n3ccc(/C=C/C(=O)Nc4ccccc4N)c3)cc2)cn1	7.88
CC(C)(C)C(=O)C(Oc1ccc(Cl)cc1)n1ccnc1 (centres unmarked)	8.39
CC(=O)[C@H]1CC[C@H]2[C@@H]3CC[C@H]4C[C@](C)(O)CC[C@]4(C)[C@H]3CC[C@]12C	-1.94
c1ccc(NCc2ccc(CNc3ccccn3)cc2)nc1	0.96
Cc1cc(CC(C)CC(C)(C)C)n(O)c(=O)c1 (centres unmarked)	-1.14
CCCCCNC(=N)N/N=C/c1c[nH]c2ccc(OC)cc12	6.08
